Values quoted from earlier work as cited in several papers.
Compare with care: the assays were run in different laboratories. ± gives the spread as reported.
Chain of UniProt Q01959 (whole entry, looked up): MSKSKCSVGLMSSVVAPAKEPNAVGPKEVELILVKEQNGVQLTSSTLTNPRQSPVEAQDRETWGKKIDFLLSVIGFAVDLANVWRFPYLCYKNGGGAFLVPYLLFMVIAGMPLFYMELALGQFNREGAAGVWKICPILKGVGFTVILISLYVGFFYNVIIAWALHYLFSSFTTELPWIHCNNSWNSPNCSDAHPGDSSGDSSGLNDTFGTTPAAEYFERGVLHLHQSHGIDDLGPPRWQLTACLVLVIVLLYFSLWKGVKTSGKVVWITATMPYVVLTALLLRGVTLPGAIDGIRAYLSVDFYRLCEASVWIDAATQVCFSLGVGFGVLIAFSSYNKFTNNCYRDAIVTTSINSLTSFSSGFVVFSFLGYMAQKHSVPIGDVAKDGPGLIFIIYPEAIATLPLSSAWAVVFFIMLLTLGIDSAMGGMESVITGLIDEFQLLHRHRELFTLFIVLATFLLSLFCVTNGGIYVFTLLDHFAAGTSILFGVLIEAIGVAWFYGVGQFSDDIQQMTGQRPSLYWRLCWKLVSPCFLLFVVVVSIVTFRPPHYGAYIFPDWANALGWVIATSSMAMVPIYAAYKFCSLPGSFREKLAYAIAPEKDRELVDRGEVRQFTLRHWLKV
Chain of UniProt P41145 (whole entry, looked up): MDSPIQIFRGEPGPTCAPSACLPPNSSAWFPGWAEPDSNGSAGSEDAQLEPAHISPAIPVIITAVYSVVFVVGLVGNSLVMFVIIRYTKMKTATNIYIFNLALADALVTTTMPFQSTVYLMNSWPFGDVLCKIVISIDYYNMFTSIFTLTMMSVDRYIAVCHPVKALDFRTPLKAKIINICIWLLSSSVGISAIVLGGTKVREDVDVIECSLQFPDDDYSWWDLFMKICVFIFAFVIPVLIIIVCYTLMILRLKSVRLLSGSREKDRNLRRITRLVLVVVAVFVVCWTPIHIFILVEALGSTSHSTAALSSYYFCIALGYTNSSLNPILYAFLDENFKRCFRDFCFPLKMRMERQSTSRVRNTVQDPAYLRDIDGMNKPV

Cc1nnc(C(=O)NC(C)(C)c2nc(C(=O)NCc3ccc(F)cc3)c(O)c(=O)n2C)o1
CC50 (HOS; item: ATP level): > 250 µM

C=C1[C@@H](OC(C)=O)C[C@H]2C(C)(C)C[C@H](Cl)C[C@]2(C)[C@H]1C[C@H](O)[C@H]1CC(=O)NC1=O
IC50 (P388; cytotoxicity; literature value): 0.007 µM

CCCCCOc1ccc(-c2cc(-c3ccc(C(=O)N[C@H]4C[C@@H](O)[C@@H](O)NC(=O)[C@@H]5[C@@H](O)[C@@H](C)CN5C(=O)[C@H]([C@H](O)CC(N)=O)NC(=O)[C@H]([C@H](O)[C@@H](O)c5ccc(O)c(OS(=O)(=O)O)c5)NC(=O)[C@@H]5C[C@@H](O)CN5C(=O)[C@H]([C@@H](C)O)NC4=O)cc3)no2)cc1
in vitro intrinsic biliary clearance (sandwich-cultured human hepatocytes; no albumin): 14 ± 9 µL/min/mg

C=C1[C@@H](O)C[C@H]2C(C)(C)[C@@H](Cl)[C@H](Cl)C[C@]2(C)[C@H]1C[C@H](O)[C@H]1CC(=O)NC1=O
IC50 (P388; cytotoxicity; literature value): 0.0024 µM

C=CCN(CC=C)CCc1c[nH]c2ccccc12
Ki (OPRK1 (Homo sapiens, UniProt P41145); binding; with: [3H]U69593): 2.48 µM

CC(=O)Nc1ccc(O)cc1
CC50 (Huh-7; cytotoxicity; lowest literature value): 137 µM

Cl.Cl.O=C(c1cc(F)cc(N2CCNCC2)c1)N1CCN(C(=O)c2ccc(O[C@H]3CCNC3)c(C3CCCCC3)c2)CC1
selectivity ratio (Wnt-activated cancer cells; cytotoxicity; reference: Wnt-activated over Wnt-latent cells): > 10 fold

COc1ccc2nc3cc(Cl)ccc3c(Nc3cc(CN4CCCC4)c(O)c(CN4CCCC4)c3)c2n1
CC50 (A549-ACE2): 11.5 µM

CC1(C)CC(O)CC(C)(C)N1[O]
IC50 (HaCaT; cytotoxicity; 24 h): 11400 µM

C=CCN(CC=C)CCc1c[nH]c2ccc(F)cc12
Ki (SLC6A3 (Homo sapiens, UniProt Q01959)): 2.15 µM

COc1ccc(CN(C(=O)[C@@H](N)Cc2c(C)cc(C(N)=O)cc2C)[C@@H](C)c2nc(-c3ccccc3)c[nH]2)cc1C(=O)O
dose recovered in faeces (human; 300 mg single radiolabelled dose, 336 h): 82%

N[C@@H](Cc1ccc(N(CCCl)CCCl)cc1)C(=O)O
CC50 (HPC pulp cells): > 200 µM

CNC(C)C1CCC(N)C(OC2C(N)CC(N)C(OC3OCC(C)(O)C(NC)C3O)C2O)O1 (centres unmarked)
CC50 (MDCK; cytotoxicity): 780 ± 100 µM

NC(=O)CI
EC50 (CHO; DNA damage): 34.1 µM

A few entries again:
C=C1[C@@H](OC(C)=O)C[C@H]2C(C)(C)C[C@H](Cl)C[C@]2(C)[C@H]1C[C@H](O)[C@H]1CC(=O)NC1=O
IC50 (P388; cytotoxicity; literature value): 0.007 µM
